Results from different studies.
Each line is one published result; not all experiments were run side by side.
MAP3K7: Mitogen-activated protein kinase kinase kinase 7 (MAP3K7, Homo sapiens, UniProt O43318)
MAP3K7 with TAB1: Mitogen-activated protein kinase kinase kinase 7, with TAB1 (MAP3K7, Homo sapiens, UniProt O43318)

SMILES	target	test	system	setting	how to read	endpoint	value
Cc1cnc2nc1Nc1cccc(c1)COC/C=C/COCc1cc(ccc1OCCN1CCOCC1)N2	MAP3K7	binding, competition with immobilised ligand		0.1 µM		remaining binding	94%
Cn1cc(-c2cnc3ccc(NC(=O)Nc4ccc5sccc5c4)cc3n2)cn1	MAP3K7	kinase binding, KiNativ profiling, item: Lys2 peptide	PANC-1 lysate	2.5 µM		inhibition	1.9%
Cc1cccc(O[C@H]2CCC[C@@H](C(C)CNCc3ccncc3)C2)c1 (relative stereo)	MAP3K7 with TAB1	kinome profiling		1 µM		inhibition	-1%
CN1CCN(Cc2ccc(-c3ccc(CO[C@H]4CCC[C@@H]4NC(=O)c4cc(-c5cnn(C)c5)cnc4N)cc3)cc2)CC1	MAP3K7 with TAB1	SelectScreen kinase profiling		0.1 µM		inhibition	3%
CNC1C[S+]2CC[S+]3CC[S+](C1)[Ru-4]321([N]=C=S)[n]2c3ccc(OC)cc3c3c4c(c5cc(F)c[n+]1c5c32)C(=O)NC4=O (stereo not shown)	MAP3K7	KinomeScan		0.1 µM	baseline: untreated	remaining binding	99%
Nc1ncc2c(n1)-c1c([nH]c3ccc(C4=CCOCC4)cc13)CCC2	MAP3K7	binding, competition with immobilised ligand		1 µM		remaining binding	100%
CS(=O)(=O)Nc1cccc(-c2csc3cnc(Nc4ccc(N5CCN(CCCCCOc6cccc7c6C(=O)N(C6CCC(=O)NC6=O)C7=O)CC5)cc4)nc23)c1 (stereo not shown)	MAP3K7	probe labelling, inhibitor, KiNativ chemoproteomics	MOLT-4	1 µM		inhibition	-15.7%
Nc1ncc(-c2cc(-c3cnn(CC(F)(F)F)c3)ncc2F)nc1C(=O)NC1CNCC(F)C1 (stereo not shown)	MAP3K7	enzyme activity		1 µM	baseline: DMSO control	remaining activity	100%
C=CC(=O)N1CCc2ccc(-n3c(=O)ccc4cnc5ccc(-c6cnn(C)c6)cc5c43)cc21	MAP3K7	KINOMEscan		1 µM	baseline: DMSO control	remaining binding	83%
COc1ccc(NC(=O)Nc2ccc3c(c2)C(=O)N(C(C)CO)CC(C)C(CN(C)Cc2ccc4c(c2)OCO4)O3)cc1 (stereo not shown)	MAP3K7	kinase activity, KinaseProfiler		0.03 µM, species human	baseline: control	remaining activity	82%
COc1cc(Nc2nccc(-c3cnn4nc(OC)ccc34)n2)cc(C(F)(F)F)c1	MAP3K7	binding, competition with immobilised ligand		1 µM		remaining binding	78%
CC(C)=CC1OC(C)(C)C2C=C3C(=O)C(Cl)=CC(O)C3C3C(O)C4OC4C(=O)C132 (stereo not shown)	MAP3K7	cell-free assay, competition with immobilised ligand		10 µM		remaining binding	78%
C=CC(=O)Nc1cccc(-c2cnc3[nH]cc(C(=O)NC(C)(C)C)c3n2)c1	MAP3K7 with TAB1	enzyme activity, inhibitor		0.1 µM		inhibition	17%
NC(=O)C[C@H]1CCc2sc3ncnc(O[C@H]4CC[C@H](N5CCOCC5)CC4)c3c21	MAP3K7	enzyme activity, inhibitor		10 µM		inhibition	0%
C=CC(=O)N1Cc2nc(-c3cc(-c4cc(Cl)cnc4Cl)c(F)cc3F)n(-c3ccncn3)c2C1	MAP3K7 with TAB1	kinome panel		1 µM		inhibition	1.2%
COc1c(Cl)cccc1Nc1c(-c2ccncc2C#C[C@@]2(C)CCCN2C(=O)/C=C/CN(C)C)[nH]c2c1C(=O)NCC2	MAP3K7	binding, competition with immobilised ligand		3 µM		remaining binding	91%

Repeated from above:
SMILES	target	test	system	setting	how to read	endpoint	value
Cc1cnc2nc1Nc1cccc(c1)COC/C=C/COCc1cc(ccc1OCCN1CCOCC1)N2	MAP3K7	binding, competition with immobilised ligand		0.1 µM		remaining binding	94%
